Published values from different studies.
Parts stem from different laboratories: compare values within a part only. Values joined by “and” are separate records of one study, mostly repeats; a detail may differ.

Block 1
Target: vesicular stomatitis virus glycoprotein
Observed: viral entry
Technique: VSVΔG-G pseudovirus
Concentration: 10 µM
With CS(=O)(=O)c1cc(C(F)(F)F)cc(S(C)(=O)=O)c1S(C)(=O)=O the inhibition was 12%.
N#C/C(=C\Nc1cc(C(F)(F)F)cc(C(F)(F)F)c1)S(=O)(=O)Cc1ccc(Cl)cc1 has an inhibition of 35%.
The inhibition of c1ccc(Nc2nccc(-c3ccncc3)n2)cc1 is reported as 12%.
CCCCc1ccc(Nc2cc(C)nc(-n3nc(C)cc3C)n2)cc1 gave an inhibition of 34%.
For COc1ccc2c(c1)[nH]c1c(C)nccc12, the inhibition was 6%.
For Cc1nn(C)c(C)c1-c1ccnc(NC2CCN(Cc3cccnc3)CC2)n1, the inhibition was 1.7%.
FC(F)(F)c1cc(NC(=S)N/N=C/c2ccccn2)cc(C(F)(F)F)c1 has an inhibition of 16%.
With CNC(=O)C(C#N)(Cc1cc(Cl)cc2c1OCOC2)Cc1cc(Cl)cc2c1OCOC2 the inhibition was -10%.

Block 2
Compound: CC(C)(C)OC(=O)N[C@H]1CCCCC/C=C\[C@@H]2C[C@@]2(C(=O)NS(=O)(=O)C2CC2)NC(=O)[C@@H]2C[C@@H](OC(=O)N3Cc4cccc(F)c4C3)CN2C1=O
It gave 58% for inhibition (Genome polyprotein (Hepatitis C virus genotype 1b, UniProt Q9WMX2); protease activity, inhibitor; 0.001 µM).
The inhibition was 51% (Genome polyprotein, NS3 protease (Hepatitis C virus genotype 1b, UniProt Q9WMX2, R1181Q); 0.1 µM).
It gave 18% for inhibition (Genome polyprotein, NS3 protease (Hepatitis C virus genotype 1b, UniProt Q9WMX2, R1181K); 0.01 µM).

Block 3
SMILES: Cc1ncsc1-c1ccc([C@H](C)NC(=O)[C@@H]2C[C@@H](O)CN2C(=O)[C@@H](NC(=O)CNC(=O)c2ccc(F)c(-c3ccc(N4C[C@@H](C)N(C)[C@@H](C)C4)c(NC(=O)c4c[nH]c(=O)cc4C(F)(F)F)c3)c2)C(C)(C)C)cc1
Target: WDR5/DCAF1 (Homo sapiens, UniProt P61964+Q9Y4B6)
Mode: degrader
Technique: HiBiT luminescence
Time: 24 h
22.7 nM — “remaining protein level”: 35.8% and 35.7% and 33% and 33.1%.
58.5 nM — “remaining protein level”: 30.4% and 25.2% and 25.7% and 28.2%.
3.42 nM — “remaining protein level”: 57.7% and 54.9% and 61.4% and 62.3%.
It gave 90.4% and 91% and 100% and 89.8% for “remaining protein level” (0.6 nM).
1000 nM — “remaining protein level”: 20.6% and 19.1% and 23% and 22.6%.

Block 4
Structure (SMILES): CCn1cnc2c(Nc3cccc(Cl)c3)nc(N[C@H]3CCCC[C@H]3N)nc21
Observed: enzyme activity
Mode: inhibitor
Concentration: 0.5 µM
Relative to: control
It gave 99.6% for remaining activity (MST1R (Homo sapiens, UniProt Q04912)).
The remaining activity was 104% (GSK3B (Homo sapiens, UniProt P49841)).
The remaining activity was 85.1% (MAP3K14 (Homo sapiens, UniProt Q99558)).
For MERTK (Homo sapiens, UniProt Q12866): remaining activity read 76.2%.
For ACVR1B (Homo sapiens, UniProt P36896): remaining activity read 110%.
The remaining activity was 102% (NEK6 (Homo sapiens, UniProt Q9HC98)).
RPS6KA2 (Homo sapiens, UniProt Q15349) — remaining activity: 45.1%.
It gave 101% for remaining activity (TAOK2 (Homo sapiens, UniProt Q9UL54)).
WEE1 (Homo sapiens, UniProt P30291) — remaining activity: 110%.
The remaining activity was 108% (MAPK3 (Homo sapiens, UniProt P27361)).
For MAP2K2 (Homo sapiens, UniProt P36507): remaining activity read 107%.
The remaining activity was 85.7% (EPHA3 (Homo sapiens, UniProt P29320)).
For JAK3 (Homo sapiens, UniProt P52333): remaining activity read 99.6%.
For FRK (Homo sapiens, UniProt P42685): remaining activity read 87.7%.

Some of these lines once more (block 3):
22.7 nM — “remaining protein level”: 35.8% and 35.7% and 33% and 33.1%.
1000 nM — “remaining protein level”: 20.6% and 19.1% and 23% and 22.6%.
It gave 90.4% and 91% and 100% and 89.8% for “remaining protein level” (0.6 nM).
58.5 nM — “remaining protein level”: 30.4% and 25.2% and 25.7% and 28.2%.
